Published values collected from several papers.
Lines come from different studies, so protocols differ. ± gives the spread as reported.
UniProt Q13418, sequence (whole entry, looked up): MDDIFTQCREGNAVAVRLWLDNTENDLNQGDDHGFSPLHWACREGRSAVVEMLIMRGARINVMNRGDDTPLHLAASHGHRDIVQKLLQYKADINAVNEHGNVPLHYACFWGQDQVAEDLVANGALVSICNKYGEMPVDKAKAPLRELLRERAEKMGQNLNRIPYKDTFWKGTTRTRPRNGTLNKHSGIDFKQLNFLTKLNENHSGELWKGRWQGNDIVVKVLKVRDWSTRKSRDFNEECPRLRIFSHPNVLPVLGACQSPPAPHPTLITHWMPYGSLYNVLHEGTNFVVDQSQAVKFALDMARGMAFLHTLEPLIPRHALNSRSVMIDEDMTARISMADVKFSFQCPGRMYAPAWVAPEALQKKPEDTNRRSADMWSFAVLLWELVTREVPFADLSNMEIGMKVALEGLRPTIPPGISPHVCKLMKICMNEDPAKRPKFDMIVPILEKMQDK

SMILES	tested on	assay	test system	conditions	endpoint	value
CCCCC/C=C\C/C=C\C/C=C\C/C=C\CCCC(=O)NCCO	ReNcell VM	mitochondrial membrane potential, TMRM	–	24 h	IC50	4300 ± 160 nM
COc1cc(C(=O)c2cc3c(-c4ccccc4)c(OC)ccc3o2)cc(OC)c1OC	FM3A	cell proliferation	–	48 h	IC50	> 50000 nM
CCCCCCCCCCCCCCNC(=O)CP(=O)(O)O	Vero CCL-81	cytotoxicity	–	–	IC50	220 µg/mL
CC(=O)OCC(=O)[C@@]1(O)[C@H](C)C[C@H]2[C@@H]3CCC4=CC(=O)C=C[C@]4(C)[C@@]3(F)[C@@H](O)C[C@@]21C	human coronavirus OC43	virus-induced cell killing	MRC-5	screen	maximum inhibition	27.1%
O=C(O)c1cc(O)c2c(c1)C(=O)c1cccc(O)c1C2=O	ACE2-SNAP-HEK293T	cell viability, CCK-8	–	24 h	IC50	173000 nM
O=C(c1ccccc1)c1cc2c(-c3ccccc3)c(O)ccc2o1	FM3A	cell proliferation	–	48 h	IC50	37000 ± 18000 nM
Clc1nc[n]([Au][PH](c2ccccc2)(c2ccccc2)c2ccccc2)c1Cl	NCI-H661 HMOX1-GFP high	cell viability, MTT	–	48 h	IC50	690 nM
COc1c(C)c2c(c(O)c1C/C=C(\C)CCC(=O)O)C(=O)OC2	U-87 MG	cell proliferation	–	–	IC50	1350 nM
C[C@H]1CN(c2n[nH]c3nc(N[C@H]4CC[C@H](NS(=O)(=O)CCC(F)(F)F)CC4)ncc23)CCO1	Scaffold protein ILK (ILK, Homo sapiens, UniProt Q13418)	biochemical	–	–	IC50	≥ 20000 nM
COC(=O)C[C@H](NC(=O)[C@H](C)NC(=O)[C@@H](NC(=O)OCc1ccccc1)C(C)C)C(=O)CF	human coronavirus OC43	virus-induced cell killing	MRC-5	maximum over 10 doses	maximum inhibition	0.957%
CC[C@@]1(O)C(=O)OCc2c1cc1n(c2=O)Cc2cc3ccccc3nc2-1	uveal melanoma cell lines	cell viability	–	average over cell lines	IC50	334 nM
CC(C)C[C@H](NC(=O)[C@H](Cc1c[nH]c2ccccc12)NC(=O)[C@@H](NC(=O)[C@H](CC(C)C)NC(=O)[C@H](Cc1ccccc1)NC(=O)[C@@H](NC(=O)[C@H](CCCCN)NC(=O)[C@H](CCCNC(=N)N)NC(=O)[C@H](CCCCN)NC(=O)[C@H](CCCCN)NC(=O)[C@H](CCCCN)NC(=O)[C@@H]1CCCN1C(=S)Nc1ccc2c(c1)C(=O)OC21c2ccc(O)cc2Oc2cc(O)ccc21)C(C)C)[C@@H](C)O)C(=O)O	NCI-H1975	CCK-8	–	liposome-delivered	IC50	19000 nM
C=CC(=O)N[C@H]1C=C(C)c2c(-c3cnc4ccccc4c3)c3c(N)ncnc3n2C1	NCI-H2073 KI SVD	cell proliferation, CellTiter-Glo	–	72 h	IC50	8.11 nM
N.N.[Cl][Pt][Cl]	renal proximal tubule cells	cytotoxicity, XTT	–	24 h	IC50	46400 ± 2460 nM
C=C(C)[C@H]1Cc2c(ccc3c2O[C@@H]2COc4cc(OC)c(OC)cc4[C@@H]2C3=O)O1	ReNcell VM	mitochondrial membrane potential, TMRM	–	24 h	IC50	220 ± 10 nM
O=c1c(O)c(-c2ccc(O)c(O)c2)oc2cc(O)cc(O)c12	ACE2-SNAP-HEK293T	cell viability, CCK-8	–	24 h	IC50	121000 nM
CC(C)[C@H](NC(=O)[C@H](Cc1c[nH]c2ccccc12)NC(=O)[C@H](Cc1c[nH]cn1)NC(=O)[C@H](CCCNC(=N)N)NC(=O)[C@H](CCCNC(=N)N)NC(=O)[C@H](Cc1c[nH]c2ccccc12)NC(=O)[C@H](Cc1c[nH]c2ccccc12)NC(=O)[C@H](Cc1c[nH]cn1)NC(=O)[C@H](Cc1c[nH]c2ccccc12)NC(=O)[C@H](CCCNC(=N)N)NC(=O)[C@@H](N)CCCCN)C(=O)N[C@H](C(=O)N[C@@H](Cc1c[nH]c2ccccc12)C(N)=O)C(C)C	THP-1	–	–	–	IC50	105000 nM
Cc1sc2c(c1C)C(c1ccc(Cl)cc1)=N[C@@H](CC(N)=O)c1nnc(C)n1-2	uveal melanoma cell lines	cell viability	–	average over cell lines	IC50	141 nM
C[C@H]1O[C@@H](O[C@H]2[C@@H](O)C[C@H](O[C@H]3[C@@H](O)C[C@H](O[C@H]4CC[C@@]5(C)[C@H](CC[C@@H]6[C@@H]5C[C@@H](O)[C@]5(C)[C@@H](C7=CC(=O)OC7)CC[C@]65O)C4)O[C@@H]3C)O[C@@H]2C)C[C@H](O)[C@@H]1O	ReNcell VM	intracellular glutathione level, monochlorobimane	–	24 h	IC50	840 ± 20 nM
O=C1CCC(N2C(=O)c3cccc4c(Cc5cnn(C6CCN(C(=O)C7(O)CCC7)CC6)c5)ccc2c34)C(=O)N1 (centres unmarked)	NCI-H929	cell proliferation	–	72 h	IC50	0.007 ± 0.003 nM
